# Measurements collected from several papers.
# A part holds a random share of what one study measured.

# Study 1
# Target: RING finger protein unkempt homolog, zinc fingers 1-6, GST-SBP tag (UNK, Homo sapiens, UniProt Q9C0B0, residues 30-357)
# Technique: RNA Bind-n-Seq
# Form: RNA
# Matrix: in vitro
# Tested at: not given
# Notes: RNA with constant flanks, human-mouse chimeric sites, ends assumed
# Baseline: input RNA pool
# Reading: higher = stronger binding
# Residues (chain): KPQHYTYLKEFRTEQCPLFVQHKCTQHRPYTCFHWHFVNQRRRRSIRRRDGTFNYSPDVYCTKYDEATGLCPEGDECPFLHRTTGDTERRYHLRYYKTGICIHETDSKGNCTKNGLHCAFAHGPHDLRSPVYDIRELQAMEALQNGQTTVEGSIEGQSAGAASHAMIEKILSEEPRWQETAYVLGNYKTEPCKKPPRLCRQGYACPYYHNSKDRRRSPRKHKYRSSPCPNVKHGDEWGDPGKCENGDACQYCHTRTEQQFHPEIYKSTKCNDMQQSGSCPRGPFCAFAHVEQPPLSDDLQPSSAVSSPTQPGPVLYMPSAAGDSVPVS
Strand,bound/input enrichment [ratio]
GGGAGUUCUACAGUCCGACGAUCAGAUUCCCCCUCCUGAGGCCUUCUCCAAAGUUGGAGUCUCUUACAGAUGCCUCAUCCCCUGUUAGCGUUUUAGUUUGGACCACACAACCUUGGACAAUUCCCGCCAACCAGGCAAUUUGCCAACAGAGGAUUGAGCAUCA,1.23
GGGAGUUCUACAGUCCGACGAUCAUAAAAGCUAUGUUGAGUGGCCCAGGUCAGUUUGCUGAGAAUGAAACCAACGAGGUCAAUUUUAGAGAGAUCCCCUCACAUGUGCUAUCAAAAGUGUGCAUGUAUUUUACCUACAAGGUCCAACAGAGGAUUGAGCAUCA,0.174
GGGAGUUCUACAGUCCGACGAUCGUGCCCUUCUCGCUGCUGCGGAGCCCGAGCUGGGAACCAUUCCGGGACUGGUACCCUCCGCAUAGCCGCCUCUUCGAUCAAGCUUUCGGGGUGCCCCGGUUGCCCGAGGAGUGGUCGCAGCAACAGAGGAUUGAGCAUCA,0.0464
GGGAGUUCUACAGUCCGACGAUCGGAAGUACAAUGAUGGAAAUAGAUGGCGACAAAGGCAAACAAGGCGGGCCCACCUACUACAUAGACACCAAUGCCCUCCGCGUGCCCAGGGAGAACAUGGAGGCCAUCUCACCACUCAAGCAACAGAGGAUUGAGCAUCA,0.252
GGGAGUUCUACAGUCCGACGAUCCCAAUUGUGGAGCAGUACUUGAAGACAAAGAAAAAUUCUAAUAAUUUAAUCAUCAAGUACAUUAGCUGCCGCCUGCUGACAUUUGUGAUUAUACUGUUAGCGUGUAUCUACUUGAGCUAUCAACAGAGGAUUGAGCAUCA,0.275
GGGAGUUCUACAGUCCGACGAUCCUAAUCCCCUUUACUGCUCCCCCACUUCUCAUGGUAAUAACAAAGUCUUAUAUCCCCGUCCUAGCUUUCACUCAGAUGGCUUAUGGAGCCAGUUUCCUAGCUUUCUUGGGAGGGAUCAGACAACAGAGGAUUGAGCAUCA,0.46

# Study 2
# Target: Interferon regulatory factor 3, full length, phosphomimetic (IRF3, Homo sapiens, UniProt Q14653, residues 1-427, S386D/S396D/S398D/S402D/T404D/S405D)
# Technique: protein-binding microarray
# Form: double-stranded DNA, one strand shown
# Matrix: in vitro
# Tested at: 2540 nM top
# Notes: 60-bp whole probe
# Added: salmon DNA 0.4 mg/ml
# Baseline: random background probes
# Reading: higher = stronger binding
# Constant ends, left off below: GCCTAGCAC … GTCTTGATTCGCTTGACGCTGCTG
# Target sequence (chain): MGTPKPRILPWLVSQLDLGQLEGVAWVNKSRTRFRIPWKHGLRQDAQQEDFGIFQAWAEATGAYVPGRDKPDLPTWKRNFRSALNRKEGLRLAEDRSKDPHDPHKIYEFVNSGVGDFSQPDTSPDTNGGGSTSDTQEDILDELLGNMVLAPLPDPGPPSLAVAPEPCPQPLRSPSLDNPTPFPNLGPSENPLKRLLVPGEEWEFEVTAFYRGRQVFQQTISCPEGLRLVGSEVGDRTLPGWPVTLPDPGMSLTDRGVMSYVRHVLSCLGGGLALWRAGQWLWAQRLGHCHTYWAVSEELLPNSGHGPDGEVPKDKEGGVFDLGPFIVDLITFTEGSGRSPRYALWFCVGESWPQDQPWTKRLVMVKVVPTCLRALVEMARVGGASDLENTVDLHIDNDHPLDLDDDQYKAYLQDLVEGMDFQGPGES
Strand,fitted relative affinity
TAAGATCTCAGTTTCGATTAGTGCTAG,3.84 z-score
GACGGGCTGGGTATCGGGACGTGCTAG,-0.622 z-score
TCATTTTTTTCTAACTAACTGTGCTAG,1.32 z-score
TTAGATTTCAGTATCGATTGGTGCTAG,2.23 z-score
GACGGTTTCGGACTGAGGACGTGCTAG,4.74 z-score
TTTATTTTTACATTATTACCGTGCTAG,1.51 z-score
TTGGGTCTCCTACTGCTTTAGTGCTAG,-0.107 z-score
TTAGGACTGGGGATTGGGTTAGTGCTA,-0.792 z-score
GACGGACTGCTTCTCCAGACGTGCTAG,-0.202 z-score
TCAAGGTTTTCTCTGGTACTGTGCTAG,-0.431 z-score
TCATATATGCATGTAAAACTGTGCTAG,0.499 z-score
GACGGTTTCGGTGCCGGGACGTGCTAG,4.93 z-score
TTGGGTCTCGGACTGGGTTAGTGCTAG,-1.03 z-score
GTTTGTCCCTATTTAAGATAGTGCTAG,2.08 z-score
GACGCTTTCGGGACTGGGGACGTGCTA,1.84 z-score
TGACAGCAGGAACATGGGCTGTGCTAG,-0.914 z-score
TCAAGTTGGACCTCTCAGACTGTGCTA,-0.483 z-score
GACGGTATCGGACTCGGGACGTGCTAG,2.8 z-score

# Study 3
# Target: Hepatocyte nuclear factor 3-alpha (Foxa1, Mus musculus, UniProt P35582, residues 1-468, full length assumed)
# Technique: EMSA with sequencing
# Form: double-stranded DNA, one strand shown
# Matrix: in vitro
# Tested at: 10 and 20 nM
# Notes: whole designed probe, mean of two concentrations, ends assumed
# Baseline: negative control set to 0
# Reading: higher = stronger binding
# Residues (chain): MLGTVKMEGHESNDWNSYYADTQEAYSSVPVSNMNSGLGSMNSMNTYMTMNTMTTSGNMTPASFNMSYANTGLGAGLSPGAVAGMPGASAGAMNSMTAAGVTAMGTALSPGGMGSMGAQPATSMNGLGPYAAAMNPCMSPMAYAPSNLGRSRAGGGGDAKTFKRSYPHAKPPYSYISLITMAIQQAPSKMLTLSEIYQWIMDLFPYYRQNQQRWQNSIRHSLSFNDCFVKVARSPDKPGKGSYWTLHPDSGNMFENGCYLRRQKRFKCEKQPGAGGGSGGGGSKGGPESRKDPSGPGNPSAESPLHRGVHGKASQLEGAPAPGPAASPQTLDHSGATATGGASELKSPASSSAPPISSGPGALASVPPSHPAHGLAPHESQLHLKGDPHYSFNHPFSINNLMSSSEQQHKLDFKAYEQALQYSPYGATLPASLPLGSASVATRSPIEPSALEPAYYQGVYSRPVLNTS
Strand,normalised bound fraction [ratio]
GTGAGCGGTGCCCATTGATGGGGAACATCTTCCCCCTCTTCCTTGCCCCACCAGCTCACCTTCCCGGGTTATTTGCAGATAGGAAAATAAATAAAGCCGGCATTCGTTAACCCTCTTCACGCGCATACTGCCAGAGCAAACAGATCGATGAATCATGTTTGGCGACGCCAGGCTCCGGGAGAGCAAAGCACCGTGTCAGGGCCATGATCCGGGGTGGCCTTTCACTGGGATCGTGGGGAC,0.395
GTGAGCGGTGCCCATTGATGGGGAACTCTTTTTCAGTATGACCATGCTTCCCACAGTTAAAATAAGCTCCAGGAAATGGAGTATTTCTTTTATCCACTCTCAGTTCTGCCATTGCCTGTGCCAACAAAGTAGCTTTATGCAGATTACCTCCGATACCATCACAGGCCTTGATATAATCAACTAAATGTGCTTTCCCTCTAATAGGTCACAGAGCAGCCTTTTCACTGGGATCGTGGGGAC,-0.0375
GTGAGCGGTGCCCATTGATGGGGAACTTTTAAGTGAAATCAACTGAAACCTTACTTTTTTTTGCTTTTATACCTAAAATAGAGGATTTAGATATATTTTCTAGGAACGATGATGTAATATGTAAACAAGGAATTTTGGTATTGTTTGAAATATTTTCTCATGGGGACACACCACTAAATTTGTCACCTCTAAAACAGTACTTAGGTTAAATGCTTTTTATTTCACTGGGATCGTGGGGAC,0.32
GTGAGCGGTGCCCATTGATGGGGAACTTGCATAAAGATTTATAGTTTAAGGTGGAGGGAGGCAGAGTTCTGGTTGGCACCAAGTAACCCAGCTGTGGTGAAAATGGGACTAAAGGAAAGTAAACAAGGAAAGACTGACAAATGCACACTGTATTTTATAGAAAGCCTATGTCTGTGACTCTAGTGGTTTTAGTGAATCTGGAATACTTTATAATTCAATTTTCACTGGGATCGTGGGGAC,0.378

# Study 4
# Target: Phosphate system positive regulatory protein PHO4, full length, GST-tagged (PHO4, Saccharomyces cerevisiae, UniProt P07270, residues 1-312)
# Technique: competition protein-binding microarray
# Form: double-stranded DNA, one strand shown
# Matrix: in vitro
# Tested at: 2 µM
# Notes: whole 60-bp probe, lowest competitor level
# Added: Cbf1 competitor, 0.05 µM
# Reading: higher = stronger binding
# Residues (chain): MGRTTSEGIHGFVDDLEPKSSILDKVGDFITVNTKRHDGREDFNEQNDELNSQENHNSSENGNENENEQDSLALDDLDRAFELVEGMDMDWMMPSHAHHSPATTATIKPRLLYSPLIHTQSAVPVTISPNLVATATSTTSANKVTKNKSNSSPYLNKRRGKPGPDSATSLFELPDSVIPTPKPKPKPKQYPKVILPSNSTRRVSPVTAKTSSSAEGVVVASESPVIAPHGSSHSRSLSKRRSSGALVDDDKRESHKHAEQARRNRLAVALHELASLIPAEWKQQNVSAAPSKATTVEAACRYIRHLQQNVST
Strand,fluorescence intensity [a.u.]
CTTAAAATGTGTACGATGTGTACACATCAACCTACTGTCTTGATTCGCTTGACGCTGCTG,5320
AACGAATTGAAACGTATCGTGACGGACAATGAAGAAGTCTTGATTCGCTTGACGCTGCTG,5280
GCGGGCATCGCGTTCGTCGTGACGAATGACTTGAAAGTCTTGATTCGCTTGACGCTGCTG,3660
AAATTACTAAGTTTTCACGTGAGGTACCCCGTATGAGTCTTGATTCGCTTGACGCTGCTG,9810
ATTTGAAGCTCCAATCACGTGATGGAAAGCTGTAAGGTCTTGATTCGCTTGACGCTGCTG,13700
ACTATTCGTCCGAGTCACGCATACGTTTGTCAGTGGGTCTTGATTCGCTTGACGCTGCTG,8300
AAAGCGGTAATTTGGCTGGTGGGTGCAGATATCTATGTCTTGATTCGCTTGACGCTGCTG,4150
CGTCCTAGTGATTGCCCTGTGGGTGCCATGAGGAAGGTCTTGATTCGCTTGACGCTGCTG,7050
AACCGTAACGCTGATAACGTGGATTAGATCTTGGAGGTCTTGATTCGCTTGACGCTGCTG,8410
CGGGGTTAAGTTTGTCACGGAACTTGCTTGCAGCAGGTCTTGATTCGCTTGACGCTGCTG,4240
AAGAATCTAAGCCAACACGCACAATAGACTCGAATGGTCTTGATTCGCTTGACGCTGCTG,7200
AAAGCGGTAATTTGATTAGTGGGTGCAGATATCTATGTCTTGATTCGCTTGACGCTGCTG,4050
TCAGAGAACAGGAAGCATGTGCTCAGTGCACAGGCGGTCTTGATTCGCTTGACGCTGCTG,12200
GTCTTGTCTCATTGGTCCGTGGGTGTCCCCACTTCAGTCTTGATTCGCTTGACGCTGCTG,7000
CTTCTGTAAATTTGGGATGTGGGTGGACGCGCCCCGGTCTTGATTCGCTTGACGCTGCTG,4560
AAGAGAAGGACCCGACACGGGTCCCTCTCGATATTAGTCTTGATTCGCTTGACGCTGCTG,6270
ATGTACAGTGGTACCCTCGTGTTTTCTGCAGCGAGAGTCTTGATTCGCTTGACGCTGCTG,11400
TTGCTGGATTCTTATCAGGTGTGGCAGTATGTCCCCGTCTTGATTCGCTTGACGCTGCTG,4390
